Literature values, collected from citations in different studies.
Each line is one published result; not all experiments were run side by side. Numbers after ± are the reported error.
ACHE: Acetylcholinesterase (ACHE, Homo sapiens, UniProt P22303)
Chain of UniProt P22303 (whole entry, looked up): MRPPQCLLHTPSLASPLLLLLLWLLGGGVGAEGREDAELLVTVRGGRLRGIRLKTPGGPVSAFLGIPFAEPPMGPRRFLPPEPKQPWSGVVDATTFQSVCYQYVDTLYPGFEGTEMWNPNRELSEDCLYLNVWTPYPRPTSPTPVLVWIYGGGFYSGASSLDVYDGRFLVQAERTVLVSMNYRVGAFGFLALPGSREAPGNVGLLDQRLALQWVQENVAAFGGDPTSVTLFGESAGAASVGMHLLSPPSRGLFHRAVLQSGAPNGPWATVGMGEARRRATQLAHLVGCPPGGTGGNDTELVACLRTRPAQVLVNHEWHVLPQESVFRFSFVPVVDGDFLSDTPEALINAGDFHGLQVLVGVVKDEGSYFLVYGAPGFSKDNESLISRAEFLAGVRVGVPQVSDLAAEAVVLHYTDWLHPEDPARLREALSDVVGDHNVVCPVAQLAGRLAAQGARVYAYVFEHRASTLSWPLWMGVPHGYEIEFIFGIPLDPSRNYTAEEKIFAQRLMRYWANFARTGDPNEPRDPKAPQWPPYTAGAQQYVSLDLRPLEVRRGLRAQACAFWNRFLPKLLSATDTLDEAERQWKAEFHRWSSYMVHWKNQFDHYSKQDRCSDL
Chain of UniProt P81908 (whole entry, looked up): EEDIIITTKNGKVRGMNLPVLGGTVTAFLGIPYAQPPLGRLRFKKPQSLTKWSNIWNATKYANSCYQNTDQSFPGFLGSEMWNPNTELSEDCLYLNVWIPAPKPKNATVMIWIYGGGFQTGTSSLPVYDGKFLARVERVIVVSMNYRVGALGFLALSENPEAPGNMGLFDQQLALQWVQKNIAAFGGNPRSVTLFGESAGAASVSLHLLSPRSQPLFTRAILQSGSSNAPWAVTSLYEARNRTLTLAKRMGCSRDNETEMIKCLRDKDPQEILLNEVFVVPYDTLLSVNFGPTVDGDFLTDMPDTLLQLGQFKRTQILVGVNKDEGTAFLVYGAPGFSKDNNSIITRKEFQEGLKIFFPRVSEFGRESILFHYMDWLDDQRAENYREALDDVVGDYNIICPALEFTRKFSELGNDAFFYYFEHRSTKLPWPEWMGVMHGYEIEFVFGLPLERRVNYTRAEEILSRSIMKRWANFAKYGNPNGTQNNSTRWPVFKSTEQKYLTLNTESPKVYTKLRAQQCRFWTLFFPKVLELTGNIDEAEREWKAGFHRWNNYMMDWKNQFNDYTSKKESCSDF
Chain of UniProt P32322 (whole entry, looked up): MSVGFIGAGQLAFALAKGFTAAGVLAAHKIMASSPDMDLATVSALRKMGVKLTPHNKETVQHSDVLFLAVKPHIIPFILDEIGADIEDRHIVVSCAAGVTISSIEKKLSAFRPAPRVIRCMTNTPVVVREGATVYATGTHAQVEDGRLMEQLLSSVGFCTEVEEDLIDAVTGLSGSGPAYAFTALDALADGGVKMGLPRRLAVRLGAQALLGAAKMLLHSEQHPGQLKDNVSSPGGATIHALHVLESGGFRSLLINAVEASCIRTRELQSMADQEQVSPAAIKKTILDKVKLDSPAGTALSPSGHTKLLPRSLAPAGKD
Chain of UniProt P28335 (whole entry, looked up): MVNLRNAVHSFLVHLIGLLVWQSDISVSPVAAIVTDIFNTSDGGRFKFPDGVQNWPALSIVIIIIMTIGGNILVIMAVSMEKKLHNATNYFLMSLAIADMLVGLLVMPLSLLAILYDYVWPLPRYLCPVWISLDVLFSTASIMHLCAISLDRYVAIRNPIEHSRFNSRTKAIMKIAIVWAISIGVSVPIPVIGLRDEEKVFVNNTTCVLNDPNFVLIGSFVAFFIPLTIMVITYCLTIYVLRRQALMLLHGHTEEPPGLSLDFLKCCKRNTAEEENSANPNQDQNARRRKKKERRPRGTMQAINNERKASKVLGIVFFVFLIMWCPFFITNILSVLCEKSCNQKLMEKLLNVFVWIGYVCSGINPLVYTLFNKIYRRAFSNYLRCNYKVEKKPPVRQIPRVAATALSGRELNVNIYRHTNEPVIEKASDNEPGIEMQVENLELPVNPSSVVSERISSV
Chain of UniProt P06276 (whole entry, looked up): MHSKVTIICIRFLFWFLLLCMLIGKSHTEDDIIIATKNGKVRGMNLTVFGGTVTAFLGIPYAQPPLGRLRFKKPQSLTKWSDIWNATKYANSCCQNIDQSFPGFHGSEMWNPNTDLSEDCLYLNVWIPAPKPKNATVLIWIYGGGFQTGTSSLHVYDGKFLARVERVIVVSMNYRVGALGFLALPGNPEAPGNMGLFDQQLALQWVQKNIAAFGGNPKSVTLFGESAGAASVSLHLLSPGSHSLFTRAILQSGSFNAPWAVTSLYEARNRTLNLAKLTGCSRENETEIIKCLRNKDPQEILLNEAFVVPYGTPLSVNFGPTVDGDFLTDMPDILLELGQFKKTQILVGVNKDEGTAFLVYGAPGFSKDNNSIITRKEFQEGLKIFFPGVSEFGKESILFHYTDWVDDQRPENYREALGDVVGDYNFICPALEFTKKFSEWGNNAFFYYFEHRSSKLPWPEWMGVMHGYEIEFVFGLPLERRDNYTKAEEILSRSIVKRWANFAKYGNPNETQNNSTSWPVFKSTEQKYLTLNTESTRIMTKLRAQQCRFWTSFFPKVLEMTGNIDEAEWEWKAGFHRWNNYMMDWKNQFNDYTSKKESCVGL
Chain of UniProt P09958 (whole entry, looked up): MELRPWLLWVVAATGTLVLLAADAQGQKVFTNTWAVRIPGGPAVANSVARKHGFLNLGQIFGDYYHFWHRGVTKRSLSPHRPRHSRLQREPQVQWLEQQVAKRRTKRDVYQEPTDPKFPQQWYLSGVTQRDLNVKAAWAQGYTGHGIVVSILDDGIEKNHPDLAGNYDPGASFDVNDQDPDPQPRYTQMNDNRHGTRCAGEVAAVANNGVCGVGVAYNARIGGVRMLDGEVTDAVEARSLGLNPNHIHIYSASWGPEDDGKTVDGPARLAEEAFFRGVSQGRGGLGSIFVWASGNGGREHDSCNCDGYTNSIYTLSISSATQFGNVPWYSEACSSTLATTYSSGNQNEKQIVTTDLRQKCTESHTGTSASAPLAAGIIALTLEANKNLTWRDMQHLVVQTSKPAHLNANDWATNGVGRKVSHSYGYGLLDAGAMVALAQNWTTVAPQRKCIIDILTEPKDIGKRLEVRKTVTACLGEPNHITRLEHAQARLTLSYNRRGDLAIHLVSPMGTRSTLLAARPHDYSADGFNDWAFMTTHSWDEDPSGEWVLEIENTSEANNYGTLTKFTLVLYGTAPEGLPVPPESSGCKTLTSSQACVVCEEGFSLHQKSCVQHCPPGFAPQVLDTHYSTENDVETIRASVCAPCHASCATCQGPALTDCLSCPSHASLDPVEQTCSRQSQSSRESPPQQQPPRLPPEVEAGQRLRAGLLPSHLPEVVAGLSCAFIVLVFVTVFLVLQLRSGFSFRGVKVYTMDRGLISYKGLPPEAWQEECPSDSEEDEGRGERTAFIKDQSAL

| SMILES | target | assay | setting | Ki [nM] |
| --- | --- | --- | --- | --- |
| COc1ccc2c(c1)CCC(NC(=O)N(C)C)C2 (stereo not shown) | ACHE |  |  | 0.67 |
| Cc1ccc2c(c1)CCCc1c(C(=O)NN3CCCCC3)nn(-c3ccc(Cl)cc3Cl)c1-2 | CB1 receptor | binding |  | 0.0052 |
| Cc1ccc(C(C)C)cc1O | Cholinesterase (BCHE, Homo sapiens, UniProt P06276) | inhibitor |  | 23.9 |
| CCN(CC)S(=O)(=O)N/C(=N/C)N1CC(c2cccnc2)C(c2ccc(Cl)cc2)=N1 (stereo not shown) | CB1 receptor | binding |  | 141 |
| C[C@H](NC(=O)[C@H](CCC(N)=O)NC(=O)CCCCNC(=N)N)C(=O)N[C@@H](CCCNC(=N)N)C(=O)c1nc2ccccc2s1 | Furin (FURIN, Homo sapiens, UniProt P09958) |  |  | > 10000 |
| CC(C)CN(C[C@@H](O)[C@H](Cc1ccccc1)NC(=O)O[C@H]1CO[C@H]2OCC[C@H]21)S(=O)(=O)c1ccc(C(N)=O)cc1 | Gag-Pol polyprotein, protease (gag-pol, Human immunodeficiency virus type 1 group M subtype B, UniProt P04585) | inhibitor |  | 0.0089 |
| O=C(O)[C@@]12C[C@@H]1[C@@H](n1cnc3c(NC(C4CC4)C4CC4)nc(Cl)nc31)[C@H](O)[C@@H]2O | HTR2C (Homo sapiens, UniProt P28335) | binding |  | 2480 |
| CN(C)S(=O)(=O)NC1CCc2ccc(O)cc2C1 (stereo not shown) | ACHE |  |  | 0.72 |
| COc1ccc2c(c1O)-c1c(O)c(OC)cc3c1[C@H](C2)[N+](C)(C)CC3 | Cholinesterase (BCHE, Equus caballus, UniProt P81908) |  |  | 2.47 |
| Cc1cc(C)cc(-c2ccc(C(C)(C)CCCCCO)cc2O)c1 | CB1 receptor | binding |  | 39 |
| Nc1ccccc1[C@H](O)C[C@H](N)C(=O)O | kynureninase (Pseudomonas fluorescens) | inhibitor |  | 1500 |
| CNc1cccc(NC(=O)N[C@@H]2N=C(c3ccccn3)c3ccccc3N(CC(=O)C(C)(C)C)C2=O)c1 | human CCKBR |  |  | 0.19 |
| CC(C)c1cccc(C(=O)C(F)(F)F)c1 | ACHE |  |  | 0.0085 |
| CN/C(=N\S(=O)(=O)N1CCCCC1)N1CC(c2ccccc2)C(c2ccc(Cl)cc2)=N1 (stereo not shown) | CB1 receptor | binding |  | 58 |
| O=CN1CCC[C@H]1C(=O)O | Pyrroline-5-carboxylate reductase 1, mitochondrial (Homo sapiens, UniProt P32322) | enzyme activity, competitive inhibitor | added: L-P5C variable, NADH 175 µM fixed | 100000 |
| O=C(O)C1=CCCN(CCON=C(c2ccccc2)c2ccccc2)C1 | Slc6a1 (Rattus norvegicus, UniProt P23978) |  |  | 200 |
| c1ccc2c(c1)OCC(C1=NCCN1)O2 (stereo not shown) | imidazoline I2 receptor, central | radioligand binding |  | 8 |
| COc1cc(NC(=O)Nc2cccc(CNC(=O)O[C@H]3CCOC3)c2)ccc1-c1cnco1 | IMPDH2 | inhibitor |  | 10 |
| CCS(=O)(=O)n1c2c(c3cc(C(=O)N4CCCCC4)ccc31)CN(C1CCCC1)C2 | CB2 receptor | binding |  | 17.5 |
| Cc1cccc(C(=O)C(F)(F)F)c1 | ACHE |  |  | 2.4 |
| O=C(/C=C/c1ccc(O)c(O)c1)O[C@H](Cc1ccc(O)c(O)c1)C(=O)O | CA2 (Homo sapiens, UniProt P00918) |  |  | 57 |
| CCCNC(=O)c1nn(-c2ccc(Cl)cc2Cl)c(-c2ccc(Cl)cc2)c1C | CB2 receptor | binding |  | 2960 |
| CC(C)c1cc2c(c(O)c1O)[C@@]1(C(=O)O)CCCC(C)(C)[C@@H]1CC2 | glutathione reductase | inhibitor |  | 790000 ± 330000 |
| Cc1c(C(=O)NCCO)nn(-c2ccc(Cl)cc2Cl)c1-c1ccc(Cl)cc1 | CB1 receptor | binding |  | 385 |
| CCCCCc1cc(O)cc(O)c1 | Cholinesterase (BCHE, Equus caballus, UniProt P81908) |  |  | 30.4 |
| Cc1c(C(=O)NN2CCCCC2)nc(-c2ccc(Cl)cc2Cl)n1-c1ccc(C(F)(F)F)cc1 | CB2 receptor | binding |  | 634 |
| O=C(O)CCCn1c2ccccc2c2nc3nonc3nc21 | beta-catenin/Tcf4 interaction | inhibitor, fluorescence polarization |  | 120000 ± 41000 |
| CCCCCCCCCCCCCC(=O)O[C@@H]1[C@@H](C)[C@@]2(O)[C@@H](C=C(CO)C[C@]3(O)C(=O)C(C)=C[C@@H]23)[C@@H]2C(C)(C)[C@]12OC(C)=O | phorbol ester binding site | binding | historical reference value | 0.59 |

For quick reference, copied from above:
| SMILES | target | assay | setting | Ki [nM] |
| --- | --- | --- | --- | --- |
| Cc1c(C(=O)NN2CCCCC2)nc(-c2ccc(Cl)cc2Cl)n1-c1ccc(C(F)(F)F)cc1 | CB2 receptor | binding |  | 634 |
| CC(C)c1cc2c(c(O)c1O)[C@@]1(C(=O)O)CCCC(C)(C)[C@@H]1CC2 | glutathione reductase | inhibitor |  | 790000 ± 330000 |
| CC(C)c1cccc(C(=O)C(F)(F)F)c1 | ACHE |  |  | 0.0085 |
| O=C(O)CCCn1c2ccccc2c2nc3nonc3nc21 | beta-catenin/Tcf4 interaction | inhibitor, fluorescence polarization |  | 120000 ± 41000 |
